{"data": "Measurements pooled from the literature", "T1": "RNA aptamer A50U; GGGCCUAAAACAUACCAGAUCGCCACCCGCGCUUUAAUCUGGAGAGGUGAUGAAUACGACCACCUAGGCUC", "note": "Lines come from different studies, so protocols differ. ± gives the spread as reported."}
{"Structure (SMILES)": "CNc1ccccc1C(=O)O[C@H]1C[C@H](n2cnc3c(N)ncnc32)O[C@@H]1COP(=O)(O)OP(=O)(O)O", "target": "Unconventional myosin-Va (Gallus gallus, UniProt Q02440, D297C/G292C/I296C/S293C/V295G)", "test": "stopped-flow FRET", "setting": "4 °C, with: MgCl2 2 mM", "quantity": "pocket forward rate constant", "value": "0.24 ± 0.15 s⁻¹"}
{"Structure (SMILES)": "O=C(NCc1ccncc1)c1cc(F)cc(F)c1", "target": "Mitogen-activated protein kinase 14 (MAPK14, Homo sapiens, UniProt Q16539)", "test": "enzyme activity", "quantity": "ligand efficiency", "value": 0.17}
{"Structure (SMILES)": "COc1ccc(CNC(=O)c2sc3nc(C)cc(C)c3c2N)cc1", "target": "Muscarinic acetylcholine receptor M4 (Rattus norvegicus, UniProt P08485)", "test": "calcium mobilization, positive allosteric modulator", "setting": "with: acetylcholine", "quantity": "efficacy cooperativity β", "value": 4.63}
{"Structure (SMILES)": "CN(C)[C@@H]1C(=O)C(C(N)=O)=C(O)[C@@]2(O)C(=O)C3=C(O)c4c(O)cccc4[C@@](C)(O)[C@H]3C[C@@H]12", "target": "T1, RNA aptamer A50U", "test": "fluorescence titration", "setting": "pH 7.5, 25 °C, MgCl2 10 mM", "quantity": "Kd", "value": "0.196 µM"}
{"Structure (SMILES)": "CN1C(=O)/C(=C/c2cc(Cl)cc(Br)c2O)SC1=S", "target": "ADP-ribosyl cyclase/cyclic ADP-ribose hydrolase 1 (CD38, Homo sapiens, UniProt P28907)", "test": "cyclase activity, fluorometric", "setting": "50 µM, with: NGD+ substrate", "scale": "baseline: untreated", "quantity": "remaining activity", "value": "19.3 ± 11.2%"}
{"Structure (SMILES)": "CC(=O)NCCN(CC(=O)NCCN(CC(=O)NCCN(CC(=O)NCCC(N)=O)C(=O)C[C@@H](N)Cc1ccccc1)C(=O)C[C@@H](N)CCCNC(=N)N)C(=O)C[C@@H](N)Cc1ccccc1", "target": "HIV-1 TAR RNA", "setting": "25 °C", "quantity": "binding free energy ΔG°", "value": "-37.3 ± 1.2 kJ/mol"}
{"Structure (SMILES)": "CNC(=O)c1ccc2c(c1)N(C)S(=O)(=O)c1cnc(SC)nc1-2", "target": "Kinesin-like protein KIF15 (Homo sapiens, UniProt Q9NS87)", "test": "microtubule-activated ATPase activity", "setting": "30 µM, with: ATP, microtubules 3 µM", "quantity": "kcat", "value": "3.6 ± 0.4 s⁻¹"}
{"Structure (SMILES)": "NC(=O)C1CCNC(=O)C(CCCNC(=O)c2cnccn2)NC(=O)C(CC2CCCCC2)NC(=O)C(CC2CC2)NC(=O)C=CC(=O)N1 (stereo not drawn)", "target": "Serine/threonine-protein kinase pim-1 (PIM1, Homo sapiens, UniProt P11309)", "test": "DNA-templated library selection", "setting": "one selection round", "quantity": "enrichment factor", "value": 2.2}
{"Structure (SMILES)": "CCCCCCC(=O)Nc1ccc(OC)nc1C", "target": "Liver carboxylesterase 1 (CES1, Homo sapiens, UniProt P23141)", "test": "enzyme activity, substrate", "scale": "baseline: CES1 over human CES2", "quantity": "specific activity ratio", "value": 6.4}
{"Structure (SMILES)": "COc1c2c(cc3oc(=O)cc(-c4ccc(O)cc4)c13)C(=O)c1cc(C)cc(O)c1C2=O", "target": "mushroom tyrosinase", "test": "enzyme activity", "setting": "100 µg/mL, with: L-DOPA", "quantity": "inhibition", "value": "66.9 ± 0.74%"}
{"Structure (SMILES)": "CC(=O)NCCN(CC(=O)NCCN(CC(=O)NCCN(CC(=O)NCCC(N)=O)C(=O)[C@@H](N)CCCNC(=N)N)C(=O)[C@@H](N)CCCCN)C(=O)[C@@H](N)Cc1ccccc1", "target": "HIV-1 TAR RNA", "setting": "25 °C", "quantity": "binding free energy ΔG°", "value": "-34.7 ± 3 kJ/mol"}
{"Structure (SMILES)": "CN1C(=O)[C@@H](Cc2ccc(O)cc2)NC(=O)CNC(=O)[C@H](Cc2ccc3ccccc3c2)NC(=O)[C@H](CCCNC(=N)N)NC(=O)[C@H]1CCCNC(=O)c1ccc(CNC(=O)CN2CCN(CC(=O)O)CCN(CC(=O)O)CCN(CC(=O)O)CC2)cc1 [gallium-68 labelled]", "target": "C-X-C chemokine receptor type 4 (CXCR4, Homo sapiens, UniProt P61073)", "test": "PET/CT", "system": "human, left adrenal lateral limb nodule", "setting": "185 MBq, 50 min", "quantity": "SUVmax", "value": 23}
{"note": "Repeated from above:"}
{"Structure (SMILES)": "CN1C(=O)/C(=C/c2cc(Cl)cc(Br)c2O)SC1=S", "target": "ADP-ribosyl cyclase/cyclic ADP-ribose hydrolase 1 (CD38, Homo sapiens, UniProt P28907)", "test": "cyclase activity, fluorometric", "setting": "50 µM, with: NGD+ substrate", "scale": "baseline: untreated", "quantity": "remaining activity", "value": "19.3 ± 11.2%"}
{"Structure (SMILES)": "CC(=O)NCCN(CC(=O)NCCN(CC(=O)NCCN(CC(=O)NCCC(N)=O)C(=O)C[C@@H](N)Cc1ccccc1)C(=O)C[C@@H](N)CCCNC(=N)N)C(=O)C[C@@H](N)Cc1ccccc1", "target": "HIV-1 TAR RNA", "setting": "25 °C", "quantity": "binding free energy ΔG°", "value": "-37.3 ± 1.2 kJ/mol"}
